Measured values collected from several papers.
Compare with care: the assays were run in different laboratories. Several values in a cell are separate wells, animals, samples, runs or records. ± marks the error that the study gave.
Na(+)/H(+) exchange regulatory cofactor NHE-RF2 PDZ domain 2: Na(+)/H(+) exchange regulatory cofactor NHE-RF2, PDZ domain 2 (Homo sapiens, UniProt Q15599)
Sequence of UniProt Q15599 (whole entry, looked up): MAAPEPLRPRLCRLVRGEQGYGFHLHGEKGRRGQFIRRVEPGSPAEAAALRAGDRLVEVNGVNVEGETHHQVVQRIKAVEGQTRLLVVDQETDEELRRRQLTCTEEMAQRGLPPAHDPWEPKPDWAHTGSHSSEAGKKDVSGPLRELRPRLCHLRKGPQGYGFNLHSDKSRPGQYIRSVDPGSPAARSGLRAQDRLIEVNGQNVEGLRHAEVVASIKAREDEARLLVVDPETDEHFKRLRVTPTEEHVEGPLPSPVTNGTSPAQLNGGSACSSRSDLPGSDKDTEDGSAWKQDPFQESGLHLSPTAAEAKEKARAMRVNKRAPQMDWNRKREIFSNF
MSP: Male-specific submandibular salivary gland protein (MSP, Mesocricetus auratus, UniProt Q9QXU1)
Sequence of UniProt Q9QXU1 (whole entry, looked up): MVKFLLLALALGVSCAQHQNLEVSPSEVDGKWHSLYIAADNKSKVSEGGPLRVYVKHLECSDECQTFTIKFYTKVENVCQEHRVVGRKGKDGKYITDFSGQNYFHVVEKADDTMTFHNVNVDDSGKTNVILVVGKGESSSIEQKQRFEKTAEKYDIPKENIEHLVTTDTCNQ
Cnr1: Cannabinoid receptor 1 (Cnr1, Rattus norvegicus, UniProt P20272)
Sequence of UniProt P20272 (whole entry, looked up): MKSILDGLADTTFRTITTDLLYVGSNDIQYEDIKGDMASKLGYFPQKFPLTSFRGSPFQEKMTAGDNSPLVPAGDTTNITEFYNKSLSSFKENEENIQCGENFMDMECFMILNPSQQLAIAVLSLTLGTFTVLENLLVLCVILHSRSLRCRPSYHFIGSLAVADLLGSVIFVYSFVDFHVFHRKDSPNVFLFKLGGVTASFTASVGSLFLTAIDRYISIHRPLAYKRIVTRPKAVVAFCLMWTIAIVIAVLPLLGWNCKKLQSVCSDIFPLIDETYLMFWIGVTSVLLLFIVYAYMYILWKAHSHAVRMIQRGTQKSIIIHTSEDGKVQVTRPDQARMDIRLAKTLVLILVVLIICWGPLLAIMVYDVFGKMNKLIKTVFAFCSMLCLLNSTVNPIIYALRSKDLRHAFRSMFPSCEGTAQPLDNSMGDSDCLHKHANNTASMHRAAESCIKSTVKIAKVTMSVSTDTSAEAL
FAP: Prolyl endopeptidase FAP (FAP, Homo sapiens, UniProt Q12884)
Sequence of UniProt Q12884 (whole entry, looked up): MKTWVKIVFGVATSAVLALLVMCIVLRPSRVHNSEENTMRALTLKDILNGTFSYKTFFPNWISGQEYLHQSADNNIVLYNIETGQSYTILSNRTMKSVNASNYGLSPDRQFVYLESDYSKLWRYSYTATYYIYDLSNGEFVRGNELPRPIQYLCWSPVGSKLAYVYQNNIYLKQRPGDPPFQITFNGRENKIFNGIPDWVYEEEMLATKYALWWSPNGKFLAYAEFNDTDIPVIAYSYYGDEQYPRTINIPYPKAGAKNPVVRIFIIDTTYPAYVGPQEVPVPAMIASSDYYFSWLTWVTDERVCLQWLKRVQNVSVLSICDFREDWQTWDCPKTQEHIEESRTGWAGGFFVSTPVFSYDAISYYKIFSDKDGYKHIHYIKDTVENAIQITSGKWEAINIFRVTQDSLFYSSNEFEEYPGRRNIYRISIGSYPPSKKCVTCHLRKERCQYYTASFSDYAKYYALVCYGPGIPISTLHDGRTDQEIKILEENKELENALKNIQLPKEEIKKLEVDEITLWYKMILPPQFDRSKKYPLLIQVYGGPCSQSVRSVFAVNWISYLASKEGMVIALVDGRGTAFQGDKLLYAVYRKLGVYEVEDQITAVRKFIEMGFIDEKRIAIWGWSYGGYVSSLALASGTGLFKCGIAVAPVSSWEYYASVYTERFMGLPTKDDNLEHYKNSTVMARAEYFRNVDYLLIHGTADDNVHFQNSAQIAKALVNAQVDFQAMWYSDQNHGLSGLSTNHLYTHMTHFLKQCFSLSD
Drd3: D(3) dopamine receptor (Drd3, Rattus norvegicus, UniProt P19020)
Sequence of UniProt P19020 (whole entry, looked up): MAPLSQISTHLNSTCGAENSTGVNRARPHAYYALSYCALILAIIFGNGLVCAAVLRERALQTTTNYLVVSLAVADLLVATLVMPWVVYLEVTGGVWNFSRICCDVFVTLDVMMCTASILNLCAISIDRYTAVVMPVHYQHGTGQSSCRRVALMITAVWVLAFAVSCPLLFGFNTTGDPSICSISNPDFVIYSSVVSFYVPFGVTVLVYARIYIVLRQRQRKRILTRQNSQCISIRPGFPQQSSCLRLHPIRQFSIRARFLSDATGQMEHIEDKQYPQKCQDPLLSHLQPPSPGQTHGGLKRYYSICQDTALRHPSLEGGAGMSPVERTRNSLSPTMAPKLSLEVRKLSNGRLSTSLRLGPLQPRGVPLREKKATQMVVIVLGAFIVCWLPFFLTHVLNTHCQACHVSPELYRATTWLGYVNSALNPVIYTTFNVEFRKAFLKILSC
HRH1: Histamine H1 receptor (HRH1, Homo sapiens, UniProt P35367)
Sequence of UniProt P35367 (whole entry, looked up): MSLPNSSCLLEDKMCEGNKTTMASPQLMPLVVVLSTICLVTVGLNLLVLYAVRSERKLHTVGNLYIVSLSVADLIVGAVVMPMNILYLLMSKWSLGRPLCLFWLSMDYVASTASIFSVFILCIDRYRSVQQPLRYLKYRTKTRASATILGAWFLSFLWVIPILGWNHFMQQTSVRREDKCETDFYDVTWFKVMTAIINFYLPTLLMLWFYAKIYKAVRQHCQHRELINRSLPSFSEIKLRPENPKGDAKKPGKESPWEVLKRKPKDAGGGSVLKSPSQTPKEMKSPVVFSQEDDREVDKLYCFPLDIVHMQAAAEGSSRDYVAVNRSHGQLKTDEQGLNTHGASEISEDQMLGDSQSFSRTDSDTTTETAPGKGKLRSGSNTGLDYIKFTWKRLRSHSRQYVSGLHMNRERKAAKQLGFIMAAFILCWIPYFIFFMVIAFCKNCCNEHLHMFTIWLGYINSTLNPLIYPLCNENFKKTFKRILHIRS
APEX1: DNA repair nuclease/redox regulator APEX1 (APEX1, Homo sapiens, UniProt P27695)
Sequence of UniProt P27695 (whole entry, looked up): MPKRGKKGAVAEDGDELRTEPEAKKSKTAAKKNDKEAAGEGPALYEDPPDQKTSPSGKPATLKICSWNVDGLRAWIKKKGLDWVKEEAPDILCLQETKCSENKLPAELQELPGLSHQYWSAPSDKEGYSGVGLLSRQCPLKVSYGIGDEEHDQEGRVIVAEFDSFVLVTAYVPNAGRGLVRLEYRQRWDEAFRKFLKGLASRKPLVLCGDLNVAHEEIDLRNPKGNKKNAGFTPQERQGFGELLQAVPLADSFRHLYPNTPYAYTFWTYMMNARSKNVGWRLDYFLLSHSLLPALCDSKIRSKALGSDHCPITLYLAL
P2RY1: P2Y purinoceptor 1 (P2RY1, Homo sapiens, UniProt P47900)
Sequence of UniProt P47900 (whole entry, looked up): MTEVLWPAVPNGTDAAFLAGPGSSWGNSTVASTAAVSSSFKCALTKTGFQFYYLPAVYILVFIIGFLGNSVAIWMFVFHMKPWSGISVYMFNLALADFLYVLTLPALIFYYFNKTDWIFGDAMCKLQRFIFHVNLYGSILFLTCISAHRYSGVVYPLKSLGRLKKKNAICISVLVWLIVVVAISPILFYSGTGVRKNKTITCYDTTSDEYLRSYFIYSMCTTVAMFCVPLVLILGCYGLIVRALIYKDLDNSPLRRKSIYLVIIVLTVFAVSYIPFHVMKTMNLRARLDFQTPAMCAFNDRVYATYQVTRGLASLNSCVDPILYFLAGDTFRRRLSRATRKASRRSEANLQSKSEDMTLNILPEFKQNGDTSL
DXR: 1-deoxy-D-xylulose 5-phosphate reductoisomerase, apicoplastic (DXR, Plasmodium falciparum, UniProt O96693)
Sequence of UniProt P20813 (whole entry, looked up): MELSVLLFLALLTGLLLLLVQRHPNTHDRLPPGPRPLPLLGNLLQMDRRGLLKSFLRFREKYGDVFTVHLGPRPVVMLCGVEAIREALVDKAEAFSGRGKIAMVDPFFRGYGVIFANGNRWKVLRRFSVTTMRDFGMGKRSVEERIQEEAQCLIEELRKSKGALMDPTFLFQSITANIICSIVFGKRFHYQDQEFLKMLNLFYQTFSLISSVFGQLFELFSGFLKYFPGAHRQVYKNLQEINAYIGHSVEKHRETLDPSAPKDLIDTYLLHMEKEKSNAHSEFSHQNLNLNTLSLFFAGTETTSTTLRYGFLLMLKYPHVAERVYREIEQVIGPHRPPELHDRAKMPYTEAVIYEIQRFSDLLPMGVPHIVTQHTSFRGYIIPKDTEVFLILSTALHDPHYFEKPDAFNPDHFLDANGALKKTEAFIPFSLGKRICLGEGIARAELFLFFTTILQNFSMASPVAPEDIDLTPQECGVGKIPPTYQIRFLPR
Sequence of UniProt O96693 (whole entry, looked up): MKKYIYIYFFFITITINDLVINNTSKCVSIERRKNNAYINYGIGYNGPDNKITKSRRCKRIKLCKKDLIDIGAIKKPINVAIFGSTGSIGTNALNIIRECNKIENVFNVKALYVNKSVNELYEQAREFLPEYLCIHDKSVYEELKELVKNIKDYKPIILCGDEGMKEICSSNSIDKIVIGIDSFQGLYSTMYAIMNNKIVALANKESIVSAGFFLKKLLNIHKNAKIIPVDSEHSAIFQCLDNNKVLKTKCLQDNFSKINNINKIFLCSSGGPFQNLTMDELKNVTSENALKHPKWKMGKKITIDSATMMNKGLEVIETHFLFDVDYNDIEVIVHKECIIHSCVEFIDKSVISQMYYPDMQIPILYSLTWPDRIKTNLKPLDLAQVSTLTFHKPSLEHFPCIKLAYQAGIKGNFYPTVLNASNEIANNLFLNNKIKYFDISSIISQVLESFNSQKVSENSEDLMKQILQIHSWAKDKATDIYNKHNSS
Sequence of UniProt P21462 (whole entry, looked up): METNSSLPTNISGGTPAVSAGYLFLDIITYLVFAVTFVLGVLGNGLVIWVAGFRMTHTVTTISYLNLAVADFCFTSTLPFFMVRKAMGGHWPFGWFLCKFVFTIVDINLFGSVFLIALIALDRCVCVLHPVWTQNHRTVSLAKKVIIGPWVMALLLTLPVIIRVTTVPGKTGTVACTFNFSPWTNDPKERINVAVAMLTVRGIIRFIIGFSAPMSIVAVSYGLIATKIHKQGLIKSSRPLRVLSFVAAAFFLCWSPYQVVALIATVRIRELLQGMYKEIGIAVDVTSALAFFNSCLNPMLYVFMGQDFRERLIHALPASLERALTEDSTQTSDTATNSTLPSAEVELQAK
Sequence of UniProt Q7Z4W1 (whole entry, looked up): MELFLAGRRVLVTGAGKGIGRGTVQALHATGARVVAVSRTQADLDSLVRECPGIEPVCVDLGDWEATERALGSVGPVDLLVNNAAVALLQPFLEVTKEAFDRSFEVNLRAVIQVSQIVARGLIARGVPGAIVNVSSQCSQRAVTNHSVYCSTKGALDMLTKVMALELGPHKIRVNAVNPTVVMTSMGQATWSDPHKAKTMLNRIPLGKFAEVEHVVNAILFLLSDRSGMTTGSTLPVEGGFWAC

O=C(O)c1c(Cl)c(Cl)c(Cl)c(Cl)c1-c1c2cc(I)c(=O)c(I)c-2oc2c(I)c(O)c(I)cc12
Ki (Dual specificity protein phosphatase 5 (Homo sapiens, UniProt Q16690); enzyme activity, noncompetitive inhibitor; 15 min, dark, two-Ki model): 0.35 ± 0.04 µM

[Cl-].[K+]
Ki (Homoisocitrate dehydrogenase, mitochondrial (Saccharomyces cerevisiae S288c, UniProt P40495); enzyme activity, inhibitor, absorbance): 90000 µM

CC(C)[C@H](NC(=O)[C@H](Cc1c[nH]c2ccccc12)NC(=O)[C@@H](NC(=O)[C@H](CC(=O)O)NC(=O)[C@H](Cc1ccccc1)NC(=O)CN)[C@@H](C)O)C(=O)O
Ki (Na(+)/H(+) exchange regulatory cofactor NHE-RF2 PDZ domain 2; fluorescence polarization competition; together with: FITC-labelled LPA2 peptide tracer): 4.6 ± 1.5 µM

CCCCCCCCCCCCO
Ki (MSP; binding, fluorescence displacement; together with: 1-AMA 2 µM): 0.17 µM

Cc1c(C(=O)NCc2cccc(/N=N/c3ccccc3)c2)nn(-c2ccc(Cl)cc2Cl)c1-c1ccc(Cl)cc1
Ki (Cnr1; radioligand binding; rat brain membranes; trans isomer, 454 nm light, together with: [3H]CP55940 0.6 nM): 0.377 ± 0.243 µM

N=C(N)NCCC[C@H](NC(=O)[C@@H](N)Cc1ccccc1)C(=O)NCCOCCOCC(=O)NCC(=O)N1CCCC[C@H]1C(N)=O
Ki (FAP; enzyme activity, inhibitor, fluorescence; pH 7.5): > 1000 µM

O=C(O)CC(C(=O)O)[C@@H]1CCN[C@H]1C(=O)O (relative stereo)
Ki (NMDA receptor, rat; binding; cortical synaptosomes; together with: [3H]-CGP 39653): 2.7 µM

CC(C(=O)NCc1ccc(C(F)(F)F)nc1OC1CCNCC1)c1ccc(NS(C)(=O)=O)c(F)c1 (centres unmarked)
Ki (TRPV1 (Homo sapiens, UniProt Q8NER1); calcium influx, antagonist, FLIPR; CHO cells expressing human TRPV1; together with: capsaicin): 1 to 10 µM

CCCN(CCC1(O)CC(NC(=O)c2ccc(F)c(Cl)c2)C1)[C@H]1CCc2nc(N)sc2C1 (stereo in doubt)
Ki (dopamine D1-like receptor, rat; radioligand binding; rat striatal membranes; together with: [3H]SCH23390): 28.2 ± 5.31 µM

NC(CC(=O)O)C(=O)NC(CC(=O)O)C(=O)NC(CS)C(=O)NC(CCCCNC(=O)CCCCCCC(=O)NCCCCC(NC(=O)NC(CCC(=O)O)C(=O)O)C(=O)O)C(=O)O (centres unmarked)
Ki (FOLH1 (Homo sapiens, UniProt Q04609); enzyme activity, inhibitor, fluorescence; lysate): 0.00273 µM

Cc1c(C(=O)NN2CCCCC2)nn(-c2ccc(Cl)cc2Cl)c1/N=N/c1ccc(Cl)cc1Cl
Ki (Cnr1; radioligand binding; rat brain membranes; trans isomer, 454 nm light, together with: [3H]CP55940 0.6 nM): 0.401 ± 0.033 µM

Nc1ncnc2c1ncn2[C@@H]1O[C@H](COP(=O)(O)O)[C@@H](OP(=O)(O)O)[C@H]1O
Ki (Protein-tyrosine sulfotransferase 2 (Homo sapiens, UniProt O60704); enzyme activity, inhibitor; pH 7.5): 3.8 µM

C=CCc1ccc(O)c(OC)c1
Ki (MSP; binding, fluorescence displacement; together with: 1-AMA 2 µM): 0.35 µM

CC(C)C(C(=O)O)[C@@H]1CCN[C@H]1C(=O)O (relative stereo)
Ki (NMDA receptor, rat; binding; cortical synaptosomes; together with: [3H]-CGP 39653): > 100 µM

CC(=O)N[C@@H](CCCNC(=N)N)C(=O)NCC(=O)NCC(=O)N1CCC[C@H]1B(O)O
Ki (FAP; inhibitor, fluorogenic substrate; together with: Tic-Pro-AFC): 0.017 µM

CCC(C)n1ncn(-c2ccc(N3CCN(c4ccc(OCC5COC(Cn6cncn6)(c6ccc(Cl)cc6Cl)O5)cc4)CC3)cc2)c1=O (centres unmarked)
Ki (Cytochrome P450 2B6 (CYP2B6, Homo sapiens, UniProt P20813); enzyme activity, competitive inhibitor; reconstituted system; 5 min, pH 7.4, together with: 7-MFC): 1.42 µM and 1.34 µM and 1.14 µM

CCCCCCCCCCO
Ki (MSP; binding, fluorescence displacement; together with: 1-AMA 2 µM): 0.13 µM

CC(C)[C@H](NC(=O)[C@H](CCC(N)=O)NC(=O)CNC(=O)[C@H](CCC(N)=O)NC(=O)[C@H](CC(N)=O)NC(=O)[C@@H]1CCCCN1C(=O)CNC(=O)COCCOCCNC(=O)[C@H](CCCNC(=N)N)NC(=O)[C@@H](N)Cc1ccccc1)C(=O)O
Ki (FAP; enzyme activity, inhibitor, fluorescence; pH 7.5): 14.5 µM

O=C(CO)[C@H](O)[C@@H](O)CO
Ki (L-xylulose reductase (Homo sapiens, UniProt Q7Z4W1); quinone redox cycling, inhibitor; together with: 9,10-phenanthrenequinone 20 µM): 940 µM

CSCC[C@H](NC(=O)[C@@H](N)CC(C)C)C(=O)N[C@@H](CC(=O)O)C(=O)N[C@@H](CO)C(=O)N[C@H](C(=O)N[C@@H](CC(C)C)C(=O)O)[C@@H](C)O
Ki (Na(+)/H(+) exchange regulatory cofactor NHE-RF2 PDZ domain 2; binding, fluorescence polarization competition; together with: FITC-FD2 8-mer reporter): 28.4 ± 1.8 µM

CCCN(CCC1(O)CC(NC(=O)c2ccc(Cl)cc2)C1)[C@H]1CCc2nc(N)sc2C1 (stereo in doubt)
Ki (Drd3; ligand displacement, radioligand; cell membranes): 0.0016 µM

O=C(O)CCC(C(=O)O)[C@@H]1CCN[C@H]1C(=O)O (relative stereo)
Ki (NMDA receptor, rat; binding; cortical synaptosomes; together with: [3H]-CGP 39653): 53 µM

N=C(N)NCCCCCCNC(=N)NCCCc1c[nH]cn1
Ki (HRH1; ligand displacement, radioligand; cell membranes): > 10 µM

N=C(N)CCl
Ki (DDAH1 (Homo sapiens, UniProt O94760); time-dependent inactivation, inactivator; pH 7.3): 310 ± 30 µM

CCCN(CC[C@]1(O)C[C@@H](NS(=O)(=O)c2ccccc2Cl)C1)[C@H]1CCc2nc(N)sc2C1 (relative stereo)
Ki (Drd3; ligand displacement, radioligand; cell membranes): 0.00059 µM

COc1ccccc1NC(=O)Cn1cc(CSc2nc3ccccc3c3nc(-c4ccccc4)c(-c4ccccc4)n23)nn1
Ki (alpha-glucosidase (Saccharomyces cerevisiae); inhibitor, secondary plot): 25 µM

COC(=O)C1(C)C=CC(=O)CC1 (centres unmarked)
Ki (MAPK14 (Homo sapiens, UniProt Q16539); ligand displacement, FP): > 200 µM

CCCN(CCC1(O)CC(NS(=O)(=O)c2cccc(OC)c2)C1)[C@H]1CCc2nc(N)sc2C1 (stereo in doubt)
Ki (Drd3; ligand displacement, radioligand; cell membranes): 0.0016 µM

N=C(NCCCCN)NCCCc1c[nH]cn1
Ki (HRH1; ligand displacement, radioligand; cell membranes): > 10 µM

Cc1cc(N/N=C/c2ccc([N+](=O)[O-])o2)c2cc3c(cc2n1)OCO3
Ki (APEX1; enzyme activity, inhibitor): 0.64 µM

N=C(N)NCCCCCCCCCCCCNC(=N)NCCCc1cnc(N)s1
Ki (HRH1; ligand displacement, radioligand; cell membranes): 0.525 µM

CCCCCCC=O
Ki (MSP; binding, fluorescence displacement; together with: 1-AMA 2 µM): 3.96 µM

Cc1cc(N/N=C/c2c(C)n(C)n(-c3ccccc3)c2=O)c2cc3c(cc2n1)OCO3
Ki (APEX1; enzyme activity, inhibitor): 0.68 µM

CCCN(CCC1(O)CC(NS(=O)(=O)c2ccc(OC)cc2)C1)[C@H]1CCc2nc(N)sc2C1 (stereo in doubt)
Ki (Drd3; ligand displacement, radioligand; cell membranes): 0.0016 µM

CNc1nc(C#CCCCCC(=O)O)nc2c1ncn2[C@H]1C[C@H](OP(=O)(O)O)[C@]2(COP(=O)(O)O)C[C@H]12
Ki (P2RY1; ligand displacement, radioligand; cell membranes): 0.35 µM

CCCN(CCC1(O)CC(NC(=O)c2ccc(-c3noc(C)n3)cc2)C1)[C@H]1CCc2nc(N)sc2C1 (stereo in doubt)
Ki (Drd3; ligand displacement, radioligand; cell membranes): 0.00096 µM

Cc1nc(N)sc1CCCNC(=N)NCCCCCCCCNC(=N)N
Ki (HRH1; ligand displacement, radioligand; cell membranes): 1.78 µM

CC(=O)N(CCCP(=O)(O)O)OCc1ccc(-c2ccccc2)cc1
Ki (DXR; inhibitor, Lineweaver-Burk plot; together with: DXP varied, NADPH 150 µM): 0.24 µM

COc1cc(-c2nc3ccccc3[nH]2)ccc1OCc1cn(CC(=O)Nc2cnc(-c3ccccc3)s2)nn1
Ki (α-glucosidase; inhibitor, Lineweaver-Burk secondary plot): 6.3 µM

O=C(Cc1cccs1)N[C@H](B(O)O)c1cccc(C(=O)O)c1
Ki (Beta-lactamase ADC-7 (Acinetobacter baumannii, UniProt Q6DRA1); inhibitor; 5 min preincubation, pH 7.4, room temperature, together with: nitrocefin): 0.022 ± 0.002 µM

CCCN1C(=O)C(O)=C(C(=O)c2ccccc2)C1c1cc(OC)ccc1OC (centres unmarked)
Ki (FPR1 (Homo sapiens, UniProt P21462); ligand displacement in cells): 1 µM and < 2 µM

CC(=O)N(C/C=C/P(=O)(O)O)OCc1ccc(-c2ccccc2)cc1
Ki (DXR; inhibitor; versus NADPH, together with: NADPH varied 6-30 µM, DXP 144 µM): 3.15 µM

CCCN(CCC1(O)CC(NS(=O)(=O)c2ccc(F)c(F)c2)C1)[C@H]1CCc2nc(N)sc2C1 (stereo in doubt)
Ki (Drd3; ligand displacement, radioligand; cell membranes): 0.0031 µM

C[C@@H](O)[C@H](NC(=O)[C@H](CO)NC(=O)CNC(=O)[C@@H](N)CO)C(=O)N[C@@H](Cc1c[nH]cn1)C(=O)N[C@@H](Cc1ccccc1)C(=O)O
Ki (Na(+)/H(+) exchange regulatory cofactor NHE-RF2 PDZ domain 2; fluorescence polarization competition; together with: FITC-labelled LPA2 peptide tracer): 9.1 ± 1 µM

N=C(NCCCCCCCCN)NCCCc1c[nH]cn1
Ki (HRH1; ligand displacement, radioligand; cell membranes): 1.23 µM

CNc1nc(C#CCCCC(=O)O)nc2c1ncn2[C@H]1C[C@H](OP(=O)(O)O)[C@]2(COP(=O)(O)O)C[C@H]12
Ki (P2RY1; ligand displacement, radioligand; cell membranes): 0.376 µM

N=C(NCCCCCCCCCCNC(N)=O)NCCCc1c[nH]cn1
Ki (HRH1; ligand displacement, radioligand; cell membranes): > 3.16 µM

Cc1cc[nH]n1
Ki (CYP2E1 (Oryctolagus cuniculus, UniProt P08682); inhibitor; pH 7.4, 37 °C, catalytic site, CPR-K56Q and cytochrome b5, together with: 4-nitrophenol): 11 µM

CCCN(CC[C@]1(O)C[C@H](NC(=O)c2cccc(Cl)c2)C1)[C@H]1CCc2nc(N)sc2C1 (relative stereo)
Ki (dopamine D1-like receptor, rat; radioligand binding; rat striatal membranes; together with: [3H]SCH23390): 28.7 ± 2.64 µM

N=C(NCCCCNC(N)=O)NCCCc1c[nH]cn1
Ki (HRH1; ligand displacement, radioligand; cell membranes): > 31.6 µM
